Measurements from different studies.
Organism: Pseudomonas aeruginosa

Compound	test	test system	conditions	how to read	MIC
CC(C)C[C@H](NC(=O)CNC(=O)[C@H](C)NC(=O)c1ccc(S[C@@H]2O[C@H](CO)[C@H](O)[C@H](O)[C@H]2O)cc1)C(=O)N[C@@H](C)C(=O)N[C@H]1CCN(c2cc3c(cc2F)c(=O)c(C(=O)O)cn3C2CC2)C1	broth microdilution	PA14, P. aeruginosa supernatant in PBS	10% supernatant, 3 h preincubation		0.195 to 0.78 µM
C[C@H]1COc2c(N3CCN(C)CC3)c(F)cc3c(=O)c(C(=O)O)cn1c23	microbial growth, broth dilution	ATCC27853			1 µg/mL
CCc1cc(=O)c2c(OCC(O)CN(CC)CC)c3ccoc3c(OC)c2o1 (stereo not drawn)	broth microdilution	ATCC 15442	19 h, 35 °C		> 256 µg/mL
O=C(Nc1ccc(F)c(F)c1)c1ccccc1O	microbial growth, broth dilution	ATCC27853			> 64 µg/mL
CCc1cc(=O)c2c(OCC(O)CN3CCCCC3)c3ccoc3c(OC)c2o1 (stereo not drawn)	broth microdilution	ATCC 15442	19 h, 35 °C		> 256 µg/mL
CC(C)C[C@H](NC(=O)CNC(=O)[C@H](C)NC(=O)c1ccc(S(=O)(=O)NC[C@H]2O[C@@H](C)[C@@H](O)[C@@H](O)[C@@H]2O)cc1)C(=O)N[C@@H](C)C(=O)N[C@H]1CCN(c2cc3c(cc2F)c(=O)c(C(=O)O)cn3C2CC2)C1	broth microdilution	PA14, P. aeruginosa supernatant in PBS	10% supernatant, 3 h preincubation		0.39 to 3.13 µM
O=C(Nc1ccc(Cl)cc1)c1cc(Cl)ccc1O	microbial growth, broth dilution	ATCC27853			> 64 µg/mL
CC1(C)S[C@@H]2[C@H](NC(=O)[C@H](N)c3ccccc3)C(=O)N2[C@H]1C(=O)O					> 367 µM
CC1(C)S[C@@H]2[C@H](NC(=O)[C@H](N)c3ccccc3)C(=O)N2[C@H]1C(=O)O	microbial growth, broth dilution	MTCC1688	48 h		100 µg/mL
CCn1cc(C(=O)NCCNCCO)c(=O)c2cc(OC)c(OCc3cc(F)cc(F)c3)cc21		ATCC 27853		≥80% growth inhibition	< 0.25 µg/mL
O=C(Nc1ccccc1)c1cc(Cl)ccc1O	microbial growth, broth dilution	ATCC27853			> 64 µg/mL
CCc1cc(=O)c2c(OCC3CO3)c3ccoc3c(OC)c2o1 (stereo not drawn)	broth microdilution	ATCC 15442	19 h, 35 °C		> 256 µg/mL
Cc1ccc(C(C)C)cc1.Cc1ccc(C(C)C)cc1.[Cl][Ru][Cl].[Cl][Ru][Cl]	broth microdilution	ATCC 25619	37 °C		> 1000 µg/mL
O=C(Nc1ccc(Br)c(C(F)(F)F)c1)c1ccccc1O	microbial growth, broth dilution	ATCC27853			> 64 µg/mL
CC(C)C[C@H](N)C(=O)N[C@@H](C)C(=O)N[C@H]1CCN(c2cc3c(cc2F)c(=O)c(C(=O)O)cn3C2CC2)C1	broth microdilution	PA14	preincubated in buffer		> 25 µM
CNC(C)C1CCC(N)C(OC2C(N)CC(N)C(OC3OCC(C)(O)C(NC)C3O)C2O)O1 (stereo not drawn)	microbial growth	ATCC27853			1 µg/mL
CC(C)C[C@H](NC(=O)CNC(=O)[C@H](C)NC(=O)c1ccc(S(=O)(=O)NC[C@H]2O[C@@H](C)[C@@H](O)[C@@H](O)[C@@H]2O)cc1)C(=O)N[C@@H](C)C(=O)NC[C@@H]1CCN(c2cc3c(cc2F)c(=O)c(C(=O)O)cn3C2CC2)C1	broth microdilution	PA14, 50% human plasma with 10% P. aeruginosa supernatant	3 h preincubation		1.56 to 3.13 µM
O=C(Nc1ccccc1)c1ccccc1	microbial growth, broth dilution	ATCC27853			> 64 µg/mL
CCc1cc(=O)c2c(OCC(O)CNC(C)(C)C)c3ccoc3c(OC)c2o1 (stereo not drawn)	broth microdilution	ATCC 15442	19 h, 35 °C		> 256 µg/mL
O=C(Nc1ccc([N+](=O)[O-])cc1F)c1cc(Cl)ccc1O	microbial growth, broth dilution	ATCC27853			> 64 µg/mL
CC(C)C[C@H](NC(=O)CNC(=O)[C@H](C)NC(=O)c1ccc(S[C@@H]2O[C@H](CO)[C@H](O)[C@H](O)[C@H]2O)cc1)C(=O)N[C@@H](C)C(=O)NC[C@@H]1CCN(c2cc3c(cc2F)c(=O)c(C(=O)O)cn3C2CC2)C1	broth microdilution	PA14, culture supernatant in PBS	10% supernatant, pre-incubation under 10 min		1.56 to 3.13 µM

Excerpt of the above:
Compound	test	test system	conditions	how to read	MIC
CCc1cc(=O)c2c(OCC(O)CNC(C)(C)C)c3ccoc3c(OC)c2o1 (stereo not drawn)	broth microdilution	ATCC 15442	19 h, 35 °C		> 256 µg/mL
O=C(Nc1ccc([N+](=O)[O-])cc1F)c1cc(Cl)ccc1O	microbial growth, broth dilution	ATCC27853			> 64 µg/mL
